{"data": "Results gathered from unrelated publications", "note": "Protocols differ between the studies behind these lines. Values joined by “and” are separate records of one study, mostly repeats; a detail may differ.", "UniProt P11388, sequence (whole entry, looked up)": "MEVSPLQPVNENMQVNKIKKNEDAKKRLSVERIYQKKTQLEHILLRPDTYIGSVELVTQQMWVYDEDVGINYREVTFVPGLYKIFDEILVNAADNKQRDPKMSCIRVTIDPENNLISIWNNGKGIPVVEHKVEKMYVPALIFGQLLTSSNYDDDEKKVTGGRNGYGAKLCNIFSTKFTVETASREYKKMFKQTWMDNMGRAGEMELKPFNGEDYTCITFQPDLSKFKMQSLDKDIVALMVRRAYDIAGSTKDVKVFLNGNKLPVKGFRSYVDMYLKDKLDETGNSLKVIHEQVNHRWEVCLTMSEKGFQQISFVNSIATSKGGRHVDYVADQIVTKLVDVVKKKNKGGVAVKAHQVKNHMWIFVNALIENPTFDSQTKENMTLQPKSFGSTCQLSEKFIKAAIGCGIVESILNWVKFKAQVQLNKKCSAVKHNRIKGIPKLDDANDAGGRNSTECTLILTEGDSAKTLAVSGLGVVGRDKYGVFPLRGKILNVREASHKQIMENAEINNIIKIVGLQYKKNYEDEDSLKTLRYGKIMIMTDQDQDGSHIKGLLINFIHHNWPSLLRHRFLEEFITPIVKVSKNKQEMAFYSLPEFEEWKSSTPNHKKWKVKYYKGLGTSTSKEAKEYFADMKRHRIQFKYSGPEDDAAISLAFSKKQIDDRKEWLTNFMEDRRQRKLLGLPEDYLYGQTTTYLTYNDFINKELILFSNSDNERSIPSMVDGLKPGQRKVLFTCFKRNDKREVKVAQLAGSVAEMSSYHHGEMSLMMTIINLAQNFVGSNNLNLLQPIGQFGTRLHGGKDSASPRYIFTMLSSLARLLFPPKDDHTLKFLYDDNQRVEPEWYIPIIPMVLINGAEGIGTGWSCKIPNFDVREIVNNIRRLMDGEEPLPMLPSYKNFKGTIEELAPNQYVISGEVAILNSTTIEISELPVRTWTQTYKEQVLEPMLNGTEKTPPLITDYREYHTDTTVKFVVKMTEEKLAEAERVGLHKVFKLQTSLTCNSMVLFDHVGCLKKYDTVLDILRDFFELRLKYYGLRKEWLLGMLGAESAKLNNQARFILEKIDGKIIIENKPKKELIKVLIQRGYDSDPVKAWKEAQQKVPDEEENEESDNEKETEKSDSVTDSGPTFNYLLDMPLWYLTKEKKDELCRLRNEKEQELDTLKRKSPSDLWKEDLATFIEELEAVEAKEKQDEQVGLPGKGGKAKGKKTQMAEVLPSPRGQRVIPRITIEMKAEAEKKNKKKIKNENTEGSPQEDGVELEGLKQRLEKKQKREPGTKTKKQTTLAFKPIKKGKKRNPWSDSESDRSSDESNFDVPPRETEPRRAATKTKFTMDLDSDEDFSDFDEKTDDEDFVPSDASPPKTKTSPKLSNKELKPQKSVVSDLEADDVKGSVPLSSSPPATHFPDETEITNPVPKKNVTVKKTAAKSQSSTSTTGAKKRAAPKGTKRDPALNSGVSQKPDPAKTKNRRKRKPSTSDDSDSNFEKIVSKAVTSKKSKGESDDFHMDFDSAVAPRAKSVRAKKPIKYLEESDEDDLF"}
{"Compound": "O=C(Nc1nc2cccc(-c3ccc(CN4CCS(=O)(=O)CC4)cc3)n2n1)C1CC1", "test": "measured: injury or procedural complication", "system": "rheumatoid arthritis patients", "conditions": "oral, 300 mg once daily, 4 weeks, any relatedness", "endpoint": "patients with adverse event", "result": "5%"}
{"Compound": "COC(=O)Nc1c(N)nc(-c2nn(Cc3ccccc3F)c3ncc(F)cc23)nc1N", "system": "humans, plasma", "conditions": "10 mg, phase I DDI study, alone", "endpoint": "AUC", "result": "6120 ng·h/mL"}
{"Compound": "CC(C)(C(=O)N1CCOc2c(C#N)cncc2C1)C(F)F", "test": "measured: injury, poisoning, procedural complications", "system": "human", "conditions": "oral, 10 mg once daily, 14 days, multiple ascending dose", "endpoint": "subjects with adverse event", "result": "0%"}
{"Compound": "COc1ccc([C@@H](O)c2cc(-c3ncnc4cc(N5CCOCC5)ccc34)c(F)cc2Cl)nn1", "system": "locally advanced rectal cancer patients", "conditions": "50 mg, with: capecitabine and radiotherapy", "endpoint": "injury poisoning procedural TEAE", "result": "100%"}
{"Compound": "COc1cc([C@@H]2c3cc4c(cc3[C@@H](O[C@@H]3O[C@@H]5CO[C@@H](C)O[C@H]5[C@H](O)[C@H]3O)[C@H]3COC(=O)[C@H]23)OCO4)cc(OC)c1O", "target or system": "DNA topoisomerase 2-alpha (TOP2A, Homo sapiens, UniProt P11388)", "test": "DNA relaxation", "conditions": "10 µM", "endpoint": "mean relaxed DNA", "result": "52.9% and 77.5% and 99.8%"}
{"Compound": "N#CCC1CCN(c2nc(Nc3ccc(N4CCC(O)CC4)cc3)c3c(=O)[nH]ncc3n2)CC1", "test": "Olink multiplex, measured: CDCP1", "system": "human, serum", "conditions": "20 mg, day 15, unit not given", "how to read": "reference: placebo", "endpoint": "serum level change", "result": -1.1}
{"Compound": "CC1COc2ccccc2N1C(=O)C(Cl)Cl (stereo not drawn)", "test": "carboxylesterase hydrolysis", "system": "rhesus monkey, female, liver cytosol", "conditions": "5 µM, 30 min, pH 7.4, without GSH", "endpoint": "enantiomeric fraction", "result": 0.4}
{"Compound": "CO/N=C(\\C(=O)N[C@@H]1C(=O)N2C(C(=O)O)=C(COC(C)=O)CS[C@H]12)c1csc(N)n1", "target or system": "Serratia fonticola", "system": "clinical isolate RKI-No_517/16", "endpoint": "MIC", "result": "> 16 µg/mL"}
{"Compound": "CCn1c(=O)c(-c2cc(NC(=O)Nc3ccccc3)c(F)cc2Br)cc2cnc(NC)cc21", "test": "measured: injury and poisoning", "system": "mild hepatic impairment", "conditions": "50 mg single dose", "endpoint": "patients with grade 3+ TEAE", "result": "0%"}
{"Compound": "COC(=O)Nc1c(N)nc(-c2nn(Cc3ccccc3F)c3ncc(F)cc23)nc1N", "system": "healthy men", "conditions": "oral, dose not given, multiple dose, with: sildenafil 100 mg", "how to read": "reference: with over without sildenafil", "endpoint": "AUC ratio", "result": 0.993}
{"Compound": "[H]/N=C(/N)N/C(=N/[H])NCCc1ccccc1", "target or system": "primary human hepatocytes", "test": "measured: DNA", "conditions": "4 h", "endpoint": "CC50", "result": "> 100 µM"}
{"Compound": "Fc1ccccc1Cc1nc(-c2nc(C(F)(F)F)n[nH]2)cn2ccnc12", "test": "measured: Dizziness", "system": "healthy humans", "conditions": "oral, 10 mg, fasted, single dose", "endpoint": "subjects with adverse events", "result": "7.1%"}
{"note": "Some of these lines once more:"}
{"Compound": "CC(C)(C(=O)N1CCOc2c(C#N)cncc2C1)C(F)F", "test": "measured: injury, poisoning, procedural complications", "system": "human", "conditions": "oral, 10 mg once daily, 14 days, multiple ascending dose", "endpoint": "subjects with adverse event", "result": "0%"}
